Results collected from several papers.
Each numbered part is a random draw from the data of one study; scales do not carry over between parts. “And” joins repeats or separate records; there may be more than shown.
Sequence of UniProt P21802 (whole entry, looked up): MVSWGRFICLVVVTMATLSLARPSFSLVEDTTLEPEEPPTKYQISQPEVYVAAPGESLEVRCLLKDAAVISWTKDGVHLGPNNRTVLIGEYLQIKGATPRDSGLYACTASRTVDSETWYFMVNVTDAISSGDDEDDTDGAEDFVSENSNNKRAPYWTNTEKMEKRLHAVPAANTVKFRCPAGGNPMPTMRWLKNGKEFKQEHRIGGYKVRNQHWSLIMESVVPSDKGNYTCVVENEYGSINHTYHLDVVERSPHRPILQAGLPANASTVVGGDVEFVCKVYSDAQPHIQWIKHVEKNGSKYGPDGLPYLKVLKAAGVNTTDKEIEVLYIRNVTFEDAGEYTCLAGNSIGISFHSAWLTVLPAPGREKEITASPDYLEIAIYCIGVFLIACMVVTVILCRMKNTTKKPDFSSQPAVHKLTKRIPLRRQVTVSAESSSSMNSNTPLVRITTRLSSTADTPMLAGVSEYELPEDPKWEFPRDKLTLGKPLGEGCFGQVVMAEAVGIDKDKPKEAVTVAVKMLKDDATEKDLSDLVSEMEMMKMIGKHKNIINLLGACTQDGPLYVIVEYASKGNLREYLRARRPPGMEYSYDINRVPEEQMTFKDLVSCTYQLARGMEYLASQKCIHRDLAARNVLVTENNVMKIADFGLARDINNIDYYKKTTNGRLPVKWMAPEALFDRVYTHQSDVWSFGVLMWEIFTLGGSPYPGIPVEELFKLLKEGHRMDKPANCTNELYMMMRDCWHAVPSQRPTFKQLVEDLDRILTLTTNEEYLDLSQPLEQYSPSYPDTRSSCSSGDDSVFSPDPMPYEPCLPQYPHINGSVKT
Sequence of UniProt O60285 (whole entry, looked up): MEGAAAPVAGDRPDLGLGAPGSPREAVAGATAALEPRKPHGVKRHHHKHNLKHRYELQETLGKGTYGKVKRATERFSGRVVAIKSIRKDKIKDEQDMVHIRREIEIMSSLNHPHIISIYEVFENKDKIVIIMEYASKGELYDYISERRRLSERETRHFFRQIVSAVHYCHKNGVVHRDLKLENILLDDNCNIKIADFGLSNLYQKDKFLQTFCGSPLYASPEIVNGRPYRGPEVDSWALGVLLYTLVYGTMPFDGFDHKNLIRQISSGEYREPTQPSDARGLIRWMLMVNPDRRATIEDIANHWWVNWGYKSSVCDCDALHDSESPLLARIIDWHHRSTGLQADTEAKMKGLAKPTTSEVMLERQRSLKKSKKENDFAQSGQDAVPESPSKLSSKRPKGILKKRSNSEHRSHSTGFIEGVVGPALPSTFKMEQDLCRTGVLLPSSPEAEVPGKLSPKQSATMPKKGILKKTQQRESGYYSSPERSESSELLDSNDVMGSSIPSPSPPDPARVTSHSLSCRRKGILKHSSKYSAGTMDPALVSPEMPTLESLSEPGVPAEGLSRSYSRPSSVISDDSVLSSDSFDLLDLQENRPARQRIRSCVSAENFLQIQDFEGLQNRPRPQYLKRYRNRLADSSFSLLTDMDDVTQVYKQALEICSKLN
Sequence of UniProt P53350 (whole entry, looked up): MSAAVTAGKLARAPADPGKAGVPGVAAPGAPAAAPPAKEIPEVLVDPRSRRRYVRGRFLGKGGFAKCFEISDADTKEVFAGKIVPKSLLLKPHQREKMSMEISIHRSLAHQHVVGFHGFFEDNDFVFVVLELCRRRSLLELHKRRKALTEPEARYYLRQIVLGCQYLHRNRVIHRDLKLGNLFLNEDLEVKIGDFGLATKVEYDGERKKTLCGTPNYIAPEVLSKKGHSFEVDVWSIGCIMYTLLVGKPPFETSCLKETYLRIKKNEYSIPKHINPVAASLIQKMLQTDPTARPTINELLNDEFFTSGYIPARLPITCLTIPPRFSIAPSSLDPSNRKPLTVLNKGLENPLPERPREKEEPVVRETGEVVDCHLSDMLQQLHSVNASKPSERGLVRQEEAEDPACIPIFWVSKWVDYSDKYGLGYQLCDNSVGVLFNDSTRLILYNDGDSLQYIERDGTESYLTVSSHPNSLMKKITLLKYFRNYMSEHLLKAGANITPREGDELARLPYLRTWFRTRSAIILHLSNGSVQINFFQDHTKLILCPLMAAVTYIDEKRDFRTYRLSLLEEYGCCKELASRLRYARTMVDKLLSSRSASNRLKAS
Sequence of UniProt Q16644 (whole entry, looked up): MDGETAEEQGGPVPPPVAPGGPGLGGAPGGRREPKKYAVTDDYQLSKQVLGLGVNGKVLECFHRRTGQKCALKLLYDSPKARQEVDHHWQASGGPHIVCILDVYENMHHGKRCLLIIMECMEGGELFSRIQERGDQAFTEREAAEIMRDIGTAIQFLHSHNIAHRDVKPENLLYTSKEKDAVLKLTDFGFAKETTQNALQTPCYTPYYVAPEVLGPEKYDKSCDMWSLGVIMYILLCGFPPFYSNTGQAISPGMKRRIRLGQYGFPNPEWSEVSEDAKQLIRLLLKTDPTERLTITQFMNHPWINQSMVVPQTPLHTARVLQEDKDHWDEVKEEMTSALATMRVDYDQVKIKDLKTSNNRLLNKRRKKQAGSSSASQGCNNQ
Sequence of UniProt P04049 (whole entry, looked up): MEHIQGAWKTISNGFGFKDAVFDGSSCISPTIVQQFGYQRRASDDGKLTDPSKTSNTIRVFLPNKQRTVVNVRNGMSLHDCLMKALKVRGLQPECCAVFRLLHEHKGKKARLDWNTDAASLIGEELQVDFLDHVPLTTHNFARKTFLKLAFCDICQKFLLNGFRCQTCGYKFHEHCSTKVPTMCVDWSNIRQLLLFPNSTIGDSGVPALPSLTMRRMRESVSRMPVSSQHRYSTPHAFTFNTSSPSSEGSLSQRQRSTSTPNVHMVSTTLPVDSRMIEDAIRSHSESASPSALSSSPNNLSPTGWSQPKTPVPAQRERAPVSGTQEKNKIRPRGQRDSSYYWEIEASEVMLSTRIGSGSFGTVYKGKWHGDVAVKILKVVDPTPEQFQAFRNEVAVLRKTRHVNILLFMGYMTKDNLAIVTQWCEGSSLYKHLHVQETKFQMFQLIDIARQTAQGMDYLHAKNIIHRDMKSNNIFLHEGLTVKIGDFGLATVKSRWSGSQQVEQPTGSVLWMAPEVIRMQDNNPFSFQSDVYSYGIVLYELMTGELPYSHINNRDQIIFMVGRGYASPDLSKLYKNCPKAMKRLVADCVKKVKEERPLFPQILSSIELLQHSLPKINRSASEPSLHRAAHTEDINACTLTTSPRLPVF
Sequence of UniProt P21127 (whole entry, looked up): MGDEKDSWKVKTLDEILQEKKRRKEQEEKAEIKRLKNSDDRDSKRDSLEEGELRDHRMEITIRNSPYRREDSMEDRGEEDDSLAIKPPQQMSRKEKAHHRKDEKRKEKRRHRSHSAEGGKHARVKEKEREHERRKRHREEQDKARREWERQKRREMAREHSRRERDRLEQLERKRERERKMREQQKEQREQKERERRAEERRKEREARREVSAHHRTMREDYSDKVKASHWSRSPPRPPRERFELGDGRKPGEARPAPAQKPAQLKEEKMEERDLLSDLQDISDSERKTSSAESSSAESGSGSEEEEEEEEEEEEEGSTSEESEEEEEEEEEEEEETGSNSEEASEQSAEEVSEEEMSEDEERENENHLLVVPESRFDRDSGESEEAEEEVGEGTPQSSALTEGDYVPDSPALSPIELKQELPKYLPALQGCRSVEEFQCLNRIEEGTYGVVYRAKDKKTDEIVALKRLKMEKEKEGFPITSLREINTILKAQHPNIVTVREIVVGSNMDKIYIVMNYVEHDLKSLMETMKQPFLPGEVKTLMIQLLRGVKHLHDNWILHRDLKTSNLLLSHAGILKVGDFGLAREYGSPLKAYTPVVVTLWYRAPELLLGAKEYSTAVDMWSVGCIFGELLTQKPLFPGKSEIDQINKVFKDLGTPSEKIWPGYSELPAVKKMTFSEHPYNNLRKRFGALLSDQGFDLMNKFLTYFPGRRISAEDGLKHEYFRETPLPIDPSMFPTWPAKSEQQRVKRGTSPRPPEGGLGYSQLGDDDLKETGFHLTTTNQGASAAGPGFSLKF
Sequence of UniProt Q00535 (whole entry, looked up): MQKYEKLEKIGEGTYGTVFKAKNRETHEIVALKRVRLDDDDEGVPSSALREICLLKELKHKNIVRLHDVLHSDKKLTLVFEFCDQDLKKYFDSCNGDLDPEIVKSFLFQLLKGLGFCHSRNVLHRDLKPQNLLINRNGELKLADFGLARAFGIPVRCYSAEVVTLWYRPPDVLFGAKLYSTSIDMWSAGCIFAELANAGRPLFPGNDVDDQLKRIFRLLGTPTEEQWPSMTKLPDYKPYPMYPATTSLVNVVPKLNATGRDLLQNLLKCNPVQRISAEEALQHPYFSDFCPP

Series 1
SMILES: Cc1ncsc1-c1ccc(C(CO)NC(=O)C2CC(O)CN2C(=O)C(NC(=O)c2ccc(COc3c(-c4c(C)c(F)cc5[nH]ncc45)c(C4CC4)cc4c(N5CC6CC5CN6)nc(OC5CCOCC5)nc34)cc2)C(C)C)cc1 (stereo not shown)
Cell line: AsPC-1
Technique: in-cell ELISA
Notes: individual replicates
| setting | phospho-ERK1/2 level |
| --- | --- |
| 100 nM | 29.1% and 33.7% and 47.3% and 34.8% and 58.3% and 31.4% |
| 300 pM | 93.3% and 97.6% and 94.8% and 92.3% and 95.9% |
| 3 µM | 10.4% and 6.48% and 4.38% and 8.09% and 11.2% and 7.98% |
| 1 µM | 3.62% and 6.85% and 11.4% and 4.61% and 12.6% and 5.12% |
| 10 µM | 12% and 9.67% and 4.58% and 25.4% and 12.4% and 7.44% |
| 3 nM | 85.2% and 97.9% and 104% and 89.4% and 98.2% and 96.2% |
| 30 nM | 79.1% and 72.7% and 84.4% and 81% and 88% and 84.3% |

Series 2
Organism: Arabidopsis thaliana
Strain: Col-0
Tested at: 12.5 µg/mL
Notes: seed germination, single repetition
| SMILES | hypocotyl length |
| --- | --- |
| COc1ccc2c(c1)OC(O)(C(=O)O)C(=O)N2Cc1ccccc1 (stereo not shown) | 1.84 cm and 1.88 cm and 1.81 cm and 1.85 cm and 1.83 cm |
| O=C(O)C1(O)Oc2cc(Br)ccc2N(Cc2ccccc2)C1=O (stereo not shown) | 1.96 cm and 1.9 cm and 1.92 cm and 1.95 cm and 1.93 cm |
| O=C(O)C1(O)Oc2ccccc2N(Cc2ccccc2)C1=O (stereo not shown) | 1.79 cm and 1.78 cm and 1.7 cm and 1.76 cm |
| CN1C(=O)C(O)(C(=O)O)Oc2cc(F)ccc21 (stereo not shown) | 2.05 cm and 2.11 cm and 1.93 cm and 1.95 cm and 1.9 cm |
| O=C(O)C1(O)Oc2cc(F)ccc2N(Cc2ccccc2)C1=O (stereo not shown) | 1.3 cm and 1.35 cm and 1.36 cm and 1.38 cm |

Series 3
Structure (SMILES): CCN(CC)CC(=O)N1CCN(c2nc(NCc3nc4cc(Cl)c(Cl)cc4[nH]3)c3ncn(CC)c3n2)CC1
Read-out: cell viability
Technique: CellCounting-Lite
Temperature: 37 °C
Reading: higher = more viable cells
| cell line | setting | luminescence signal |
| --- | --- | --- |
| MDA-MB-468 | 0.1221 nM | 64500 a.u. and 64600 a.u. and 54900 a.u. |
| MDA-MB-231 | 500 nM | 7350 a.u. and 6940 a.u. and 7480 a.u. |
| MDA-MB-231 | 0.007629 nM | 461000 a.u. and 460000 a.u. and 491000 a.u. |

Series 4
Structure (SMILES): CCN1/C(=C/C=C2\CCCC(/C=C/C3=[N+](CC)c4ccccc4C3(C)C)=C2NCCCCCCCCN2CCC(Nc3nc4ccccc4n3Cc3ccc(F)cc3)CC2)C(C)(C)c2ccccc21
Cell line: U-87 MG
Tested at: concentration not given
Relative to: DMSO
| test | log2 fold change |
| --- | --- |
| item: RAD51 mRNA | -1.69 |
| item: ADTRP mRNA | 1.37 |
| item: MAFK mRNA | 1.8 |
| item: TTC7A mRNA | -0.929 |
| item: KDM3A mRNA | 1.08 |
| item: UBE2C mRNA | -2.02 |
| item: KCNJ15 mRNA | -1.67 |
| item: KLF2 mRNA | -1.02 |
| item: PWP2 mRNA | -0.819 |
| item: EIF5 mRNA | 1.23 |
| item: IGDCC4 mRNA | -1.39 |
| item: TSPAN13 mRNA | 1.73 |

Series 5
Compound: CNc1ncc2cc(-c3cc(OC)cc(OC)c3Cl)c(=O)n(CCc3ccc(NC(=O)C(C#N)=CC(C)(C)N4CCOCC4)cc3)c2n1
Read-out: kinase activity
| target | setting | inhibition |
| --- | --- | --- |
| Cyclin-dependent kinase 5 (CDK5, Homo sapiens, UniProt Q00535) | 0.1 µM | -1% |
| Aurora kinase A (AURKA, Homo sapiens, UniProt O14965) | 0.1 µM | -1% |
| Mitogen-activated protein kinase kinase kinase 7, with TAB1 (MAP3K7, Homo sapiens, UniProt O43318) | 1 µM | -1% |
| Serine/threonine-protein kinase PLK1 (PLK1, Homo sapiens, UniProt P53350) | 1 µM | 3% |
| Calcium/calmodulin-dependent protein kinase type II subunit delta (CAMK2D, Homo sapiens, UniProt Q13557) | 1 µM | 7% |
| Protein kinase C iota type (PRKCI, Homo sapiens, UniProt P41743) | 1 µM | 1% |
| Death-associated protein kinase 1 (DAPK1, Homo sapiens, UniProt P53355) | 0.1 µM | -1% |
| Serine/threonine-protein kinase PAK 4 (PAK4, Homo sapiens, UniProt O96013) | 0.1 µM | -1% |
| Protein kinase C gamma type (PRKCG, Homo sapiens, UniProt P05129) | 0.1 µM | 1% |
| Receptor tyrosine-protein kinase erbB-4 (ERBB4, Homo sapiens, UniProt Q15303) | 0.1 µM | -1% |
| MAP kinase-activated protein kinase 3 (MAPKAPK3, Homo sapiens, UniProt Q16644) | 1 µM | 0% |
| RAF proto-oncogene serine/threonine-protein kinase (RAF1, Homo sapiens, UniProt P04049) | 1 µM | 60% |
| Fibroblast growth factor receptor 2 (FGFR2, Homo sapiens, UniProt P21802) | 0.1 µM | 96% and > 90% |
| Serine/threonine-protein kinase DCLK2 (DCLK2, Homo sapiens, UniProt Q8N568) | 1 µM | 1% |
| NT-3 growth factor receptor (NTRK3, Homo sapiens, UniProt Q16288) | 1 µM | 9% |
| Serine/threonine-protein kinase PAK 2 (PAK2, Homo sapiens, UniProt Q13177) | 0.1 µM | 1% |
| Angiopoietin-1 receptor (TEK, Homo sapiens, UniProt Q02763) | 0.1 µM | -5% |
| NUAK family SNF1-like kinase 1 (NUAK1, Homo sapiens, UniProt O60285) | 0.1 µM | 2% |
| Muscle, skeletal receptor tyrosine-protein kinase (MUSK, Homo sapiens, UniProt O15146) | 1 µM | 1% |
| Ephrin type-A receptor 1 (EPHA1, Homo sapiens, UniProt P21709) | 0.1 µM | 0% |

Series 6
Compound: Cc1nc(C)c(C=[N+]([O-])C(C)(C)C)nc1C
Technique: footprint test
Species: MPTP-induced Parkinson's disease mouse model
| setting | corridor crossing time |
| --- | --- |
| 90 mg/kg | 6.41 s and 5.45 s and 5.13 s and 5.26 s and 7.41 s and 5.15 s and 6.6 s |
| 10 mg/kg | 7.11 s and 6.26 s and 4.7 s and 5.6 s and 6 s and 3.97 s and 6.37 s and 6.88 s |
| 30 mg/kg, trial 3 | 5.28 s and 5.67 s and 7.53 s and 4.29 s and 5.3 s and 5.08 s and 5.91 s and 6.18 s |
| 10 mg/kg, trial 3 | 7.31 s and 7.79 s and 6.22 s and 4.19 s and 4.64 s and 8.09 s and 5.88 s |
| 10 mg/kg, trial 1 | 3.25 s and 4.99 s and 6.18 s and 5.47 s and 5.74 s and 6.07 s and 5.24 s |

Series 7
SMILES: O=C(Nc1ccccc1)Nc1cccc(Oc2ccc3nccn3n2)c1
Tested at: 1 µM
| target | setting | remaining activity [%] |
| --- | --- | --- |
| RAC-alpha serine/threonine-protein kinase (AKT1, Homo sapiens, UniProt P31749) |  | 68 |
| Epidermal growth factor receptor (EGFR, Homo sapiens, UniProt P00533, del752-759) |  | 91 |
| SNF-related serine/threonine-protein kinase (SNRK, Homo sapiens, UniProt Q9NRH2) |  | 100 |
| Serine/threonine-protein kinase PAK 3 (PAK3, Homo sapiens, UniProt O75914) |  | 100 |
| Casein kinase I isoform gamma-2 (CSNK1G2, Homo sapiens, UniProt P78368) |  | 100 |
| Mitogen-activated protein kinase kinase kinase 6 (MAP3K6, Homo sapiens, UniProt O95382) | ASK2 construct | 100 |
| Ribosomal protein S6 kinase alpha-3 (RPS6KA3, Homo sapiens, UniProt P51812) | kinase domain 2 C-terminal | 68 |
| Phosphorylase b kinase gamma catalytic chain, liver/testis isoform (PHKG2, Homo sapiens, UniProt P15735) |  | 91 |
| Phosphorylase b kinase gamma catalytic chain, skeletal muscle/heart isoform (PHKG1, Homo sapiens, UniProt Q16816) |  | 100 |
| Cyclin-dependent kinase 11B (CDK11B, Homo sapiens, UniProt P21127) | CDC2L1 construct | 100 |

Series 8
SMILES: COCCCCCCC1CC2C(CCC3(C)C(O)CCC23)c2ccc(O)cc21 (stereo not shown)
Technique: microarray
Relative to: untreated
| cell line | test | setting | log2 fold change |
| --- | --- | --- | --- |
| SK-OV-3 | item: ISG20L1 | 10 µM | 1.09 |
| PANC-1 | item: ACTA2 | 10 µM | -0.302 |
| PANC-1 | item: ACTA2 | 50 µM | -0.361 |
| A549 | item: GADD45A | 50 µM | 4.29 |
| PANC-1 | item: CCL8 | 50 µM | 4.95 |
| PANC-1 | item: ISG20L1 | 50 µM | 0.864 |
| PANC-1 | item: ADAMTS14 | 10 µM | -0.403 |
| SK-OV-3 | item: UBB | 10 µM | -0.662 |
| SK-OV-3 | item: GADD45A | 10 µM | -0.305 |
| SK-OV-3 | item: ADAMTS14 | 50 µM | 0.0918 |

Mixed results
| SMILES | target or system | test | test system | setting | scale | measurement | value |
| --- | --- | --- | --- | --- | --- | --- | --- |
| Cc1ccc(O)c(C)c1-c1cnc2[nH]c(-c3cnc(N4CCC(CN5CCN(c6cc7c(cc6F)n(C6CCC(=O)NC6=O)c(=O)n7C)CC5)CC4)nc3)cc2c1C#N (stereo not shown) | Membrane-associated tyrosine- and threonine-specific cdc2-inhibitory kinase (PKMYT1, Homo sapiens, UniProt Q99640) | degrader, automated immunoblot | HCC1569 | 1.00 nM |  | degradation | 75.3% |
| Cc1ccc(O)c(C)c1-c1cnc2[nH]c(-c3cnc(N4CCC(CCN5CCN(c6ccc(N7CCC(=O)NC7=O)cc6F)CC5)CC4)nc3)cc2c1C#N | HCC1569 | in-cell western, item: CDK1 phospho-Thr14 |  | 1.52 nM |  | pCDK1 (Thr14) level | 11.9 RLU and 13 RLU |
| Cc1ccc(O)c(C)c1-c1cnc2[nH]c(-c3cnc(N4CCC5(CC4)CC(N4CCN(c6ccc(N[C@H]7CCC(=O)NC7=O)cc6F)CC4)CO5)nc3)cc2c1C#N (single isomer, unassigned) |  | KINOMEscan | 403 non-mutant kinase panel | 1000 nM, percent of control below 10 |  | number of kinases bound | 1 |
| Cc1ccc(O)c(C)c1-c1cnc2[nH]c(-c3cnc(N)nc3)cc2c1C#N | ABL1 non-phosphorylated human | KINOMEscan |  | 1000 nM | relative to: control | binding remaining | 21% |

Some of these lines once more (series 2):
| SMILES | hypocotyl length |
| --- | --- |
| COc1ccc2c(c1)OC(O)(C(=O)O)C(=O)N2Cc1ccccc1 (stereo not shown) | 1.84 cm and 1.88 cm and 1.81 cm and 1.85 cm and 1.83 cm |
| CN1C(=O)C(O)(C(=O)O)Oc2cc(F)ccc21 (stereo not shown) | 2.05 cm and 2.11 cm and 1.93 cm and 1.95 cm and 1.9 cm |
| O=C(O)C1(O)Oc2cc(Br)ccc2N(Cc2ccccc2)C1=O (stereo not shown) | 1.96 cm and 1.9 cm and 1.92 cm and 1.95 cm and 1.93 cm |
| O=C(O)C1(O)Oc2cc(F)ccc2N(Cc2ccccc2)C1=O (stereo not shown) | 1.3 cm and 1.35 cm and 1.36 cm and 1.38 cm |
